Measured values gathered from unrelated publications.
Numbers after ± are the reported error.

C#C[C@]1(O)CC[C@H]2[C@@H]3CCC4=CC(=O)CC[C@@H]4[C@H]3CC[C@@]21C  AUC(0-t) (human female, plasma; oral, 1 mg, day 1, with: ethinyl estradiol 35 µg): 0.0381 µg·h/mL
COc1c(N2C[C@@H]3CCCN[C@@H]3C2)c(F)cc2c(=O)c(C(=O)O)cn(C3CC3)c12  AUC(0-t) (human; oral, 400 mg single dose, geometric mean): 20.9 µg·h/mL
Cc1[nH]c(/C=C2\C(=O)Nc3ccccc32)c(C)c1CCC(=O)O  AUC(0-t) (human patients; oral, 200 mg/m^2 twice daily, after meal, dose 55): 28.7 ± 1.6 µg·h/mL
CC[C@H](C)[C@H](NC(=O)[C@H](Cc1ccc(O)cc1)NC(=O)[C@@H](NC(=O)[C@@H](N)CCCNC(=N)N)C(C)C)C(=O)N[C@@H](Cc1c[nH]cn1)C(=O)N1CCC[C@H]1C(=O)N[C@@H](Cc1ccccc1)C(=O)N[C@@H](Cc1c[nH]cn1)C(=O)N[C@@H](CC(C)C)C(=O)O  AUC(0-t) (healthy humans, plasma; oral, 0.70 mg/kg single dose, 0 to 12 h): 0.0583 ± 0.0131 µg·h/mL
CCCc1nn(C)c2c(=O)[nH]c(-c3cc(S(=O)(=O)N4CCN(C)CC4)ccc3OCC)nc12  AUC(0-t) (human, male, plasma; oral, 50 mg, day 1): 0.526 µg·h/mL
CCOc1ccc(Cc2cc([C@]34OC[C@](CO)(O3)[C@@H](O)[C@H](O)[C@H]4O)ccc2Cl)cc1  AUC(0-t) (human, plasma; oral, 15 mg, with: sitagliptin 100 mg): 1.45 µg·h/mL
COc1cc2c(cc1OC)CN(CCc1ccc(NC(=O)c3cc(OC)c(OC)cc3NC(=O)c3cnc4ccccc4c3)cc1)CC2  AUC(0-t) (LC-MS; human, venous plasma; intravenous infusion, 2 mg/kg, 4 h): 2.95 µg·h/mL
CNc1nc(Nc2ccc(-n3cnc(C)n3)c(OC)c2)nc2c1CC[C@H]2c1ccc(F)cc1  AUC(0-t) (human; oral, 50 mg once daily, day 1, multiple ascending dose): 1.52 µg·h/mL
CN[C@@H]1COc2c(S(=O)(=O)NC(=O)Nc3c4c(cc5c3CCC5)CCC4)cnn2C1  AUC(0-t) (human; oral, 600 mg, high-fat meal, mean): 150 µg·h/mL
Cc1nc2cccc(N)c2c(=O)n1C1CCC(=O)NC1=O (centres unmarked)  AUC(0-t) (healthy adult human, plasma; oral, 3 mg, geometric mean, with: rifampin 600 mg once daily): 0.43 µg·h/mL
COc1c(OCCCN2CCOCC2)ccc2c1N=C(NC(=O)c1cnc(N)nc1)N1CCN=C21  AUC(0-t) (human cancer patients, plasma; intravenous, 0.4 mg/kg weekly, cycle 1 day 1, compound alone, geometric mean): 0.432 µg·h/mL
CCCC[C@H](NC(C)=O)C(=O)N[C@H]1CCC(=O)NC[C@@H](C(=O)N[C@@H](Cc2c[nH]c3ccccc23)C(N)=O)NC(=O)[C@H](CCCNC(=N)N)NC(=O)[C@@H](Cc2ccccc2)NC(=O)[C@H](Cc2c[nH]cn2)NC1=O  AUC(0-t) (healthy human, both sexes, plasma; subcutaneous, 3.0 mg once daily, day 1, arithmetic mean): 0.154 µg·h/mL
CCCS(=O)(=O)N[C@H]1C[C@@H](N(C)c2ncnc3[nH]ccc23)C1  AUC(0-t) (humans, moderate hepatic impairment; oral, 200 mg single): 8.55 µg·h/mL
CCS(=O)(=O)N1CC(CC#N)(n2cc(-c3ncnc4[nH]ccc34)cn2)C1  AUC(0-t) (healthy Chinese human subjects, plasma; oral, 4 mg, single dose, mean): 0.269 µg·h/mL
Cc1cc(C)c2c(c1)[C@@H](N(Cc1cc(C(F)(F)F)cc(C(F)(F)F)c1)c1nnn(C)n1)CCCN2C[C@H]1CC[C@H](C(=O)O)CC1  AUC(0-t) (human, plasma; oral, 10 mg once daily, steady state, geometric mean): 0.572 µg·h/mL
CNCc1ccc(-c2[nH]c3cc(F)cc4c3c2CCNC4=O)cc1  AUC(0-t) (human, plasma; oral, 40 mg once daily, 24 h, steady state, median): 1.05 µg·h/mL
Cc1cc(-c2nnc(N)nc2-c2ccc(F)cc2)cc(Cl)n1  AUC(0-t) (human patients, plasma; oral, 100 mg nanosuspension, single dose, arithmetic mean): 4.29 µg·h/mL
COC(=O)[C@H](c1ccccc1Cl)N1CCC(S)/C(=C\C(=O)O)C1 (some centres unmarked)  AUC(0-t) (human patients, CYP3A4 wt/wt, plasma; oral, 75 mg clopidogrel daily, day 7, median): 0.00569 µg·h/mL
O=C(O)CNC(=O)c1c(O)c2ccccc2n(OCC2CC2)c1=O  AUC(0-t) (LC-MS/MS; human, blood; oral, 300 mg multiple doses): 40.5 ± 18 µg·h/mL
CC(C)[C@@H](CS(=O)(=O)C(C)C)N1C(=O)[C@@](C)(CC(=O)O)C[C@H](c2cccc(Cl)c2)[C@H]1c1ccc(Cl)cc1  AUC(0-t) (human, plasma; oral, 60 mg, old tablet, fasted, geometric LS mean): 2.46 µg·h/mL
CN(Cc1cnc2nc(N)nc(N)c2n1)c1ccc(C(=O)N[C@@H](CCC(=O)O)C(=O)O)cc1  AUC(0-t) (human, both sexes, plasma; oral, 20 mg, day 1, alone, arithmetic mean): 2.95 µg·h/mL
Cc1ccc(NC(=O)c2ccc(CN3CCN(C)CC3)cc2)cc1Nc1nccc(-c2cncc(-c3oncc3C)c2)n1  AUC(0-t) (older healthy human adults, plasma; oral, 25.0 mg single dose, fed, mean): 22.7 µg·h/mL
CN(C)C(=N)N=C(N)N  AUC(0-t) (human, male; oral, 20 mg): 51.7 µM·h
COc1cc2ncnc(Nc3ccc(F)c(Cl)c3)c2cc1OCCCN1CCOCC1  AUC(0-t) (human, plasma; oral, 250 mg, with: vorinostat 200 mg): 0.00452 ± 0.000779 µg·h/mL
CNC(=O)c1c(C)oc2cc(Oc3ncnc4cc(OC)c(OC)cc34)ccc12  AUC(0-t) (human, plasma; oral, 5 mg, fasted): 4.86 µg·h/mL
CN(C)Cc1c(C(=O)NCCOc2ccc(C(=O)NO)cc2)oc2ccccc12  AUC(0-t) (human, plasma; oral, 40 mg single dose): 0.159 ± 0.0121 µg·h/mL
O=S(=O)(c1cccc2cnccc12)N1CCCNCC1  AUC(0-t) (human, plasma; intravenous, 30 mg): 0.0556 µg·h/mL
CCCCC1(CCCC)CN(c2ccccc2)c2cc(SC)c(OCC(=O)N[C@@H](C(=O)NCC(=O)O)c3ccccc3)cc2S(=O)(=O)C1  AUC(0-t) (human, plasma; oral, 2.5 mg, before breakfast): 0.000227 µg·h/mL
O=C(O)CC[C@H]1CC[C@@](c2cc(F)ccc2F)(S(=O)(=O)c2ccc(Cl)cc2)CC1  AUC(0-t) (human patients, plasma; oral, 1400 mg/m^2 weekly, median, dose 1 of course 1): 1980 µg·h/mL
CCn1c(=O)c2c(nc(/C=C/c3ccc(OC)c(OC)c3)n2C)n(CC)c1=O  AUC(0-t) (healthy human, plasma; oral, 40 mg single dose, arithmetic mean, with: rifampin 600 mg/day steady state): 2.04 µg·h/mL
C=C(C)[C@@H]1CC[C@]2(NCCN3CCS(=O)(=O)CC3)CC[C@]3(C)[C@H](CC[C@@H]4[C@@]5(C)CC=C(C6=CC[C@@](CF)(C(=O)O)CC6)C(C)(C)[C@@H]5CC[C@]43C)[C@@H]12  AUC(0-t) (healthy human volunteers; oral, 200 mg, tablet, moderate-fat meal, arithmetic mean): 36.1 µg·h/mL
CC[C@H](C)[C@H](NC(=O)[C@H](Cc1ccccc1)NC(=O)[C@H](CCC(=O)O)NC(=O)[C@H](CCCCNC(=O)COCCOCCNC(=O)COCCOCCNC(=O)CC[C@H](NC(=O)CCCCCCCCCCCCCCCCC(=O)O)C(=O)O)NC(=O)[C@H](C)NC(=O)[C@H](C)NC(=O)[C@H](CCC(N)=O)NC(=O)CNC(=O)[C@H](CCC(=O)O)NC(=O)[C@H](CC(C)C)NC(=O)[C@H](Cc1ccc(O)cc1)NC(=O)[C@H](CO)NC(=O)[C@H](CO)NC(=O)[C@@H](NC(=O)[C@H](CC(=O)O)NC(=O)[C@H](CO)NC(=O)[C@@H](NC(=O)[C@H](Cc1ccccc1)NC(=O)[C@@H](NC(=O)CNC(=O)[C@H](CCC(=O)O)NC(=O)C(C)(C)NC(=O)[C@@H](N)Cc1cnc[nH]1)[C@@H](C)O)[C@@H](C)O)C(C)C)C(=O)N[C@@H](C)C(=O)N[C@@H](Cc1c[nH]c2ccccc12)C(=O)N[C@@H](CC(C)C)C(=O)N[C@H](C(=O)N[C@@H](CCCNC(=N)N)C(=O)NCC(=O)N[C@@H](CCCNC(=N)N)C(=O)NCC(=O)O)C(C)C  AUC(0-t) (human type 2 diabetes, plasma; subcutaneous, 0.5 mg, 840 h, with: 175 U insulin icodec): 2.42 µM·h
O=c1[nH]c(=O)c(Cc2cccc(C(F)(F)F)c2)c([C@H]2CC[C@H](c3ccccc3)CC2)[nH]1  AUC(0-t) (human, fasted, plasma; oral, 900 mg single dose, geometric mean): 7.36 µg·h/mL
CCc1nc(C(N)=O)c(Nc2ccc(N3CCC(N4CCN(C)CC4)CC3)c(OC)c2)nc1NC1CCOCC1  AUC(0-t) (healthy humans, after high-fat breakfast, plasma; oral, 40 mg, single dose): 1.84 µg·h/mL
COc1cc2c(Oc3ccc4[nH]c(C)cc4c3F)ncnc2cc1OCCCN1CCCC1  AUC(0-t) (human, patients, plasma; oral, 20 mg/m^2 once daily, day 28): 0.239 µg·h/mL
CC(C)C[C@H](NC(=O)[C@H](CCc1ccccc1)NC(=O)CN1CCOCC1)C(=O)N[C@@H](Cc1ccccc1)C(=O)N[C@@H](CC(C)C)C(=O)[C@@]1(C)CO1  AUC(0-t) (human patients, plasma; intravenous infusion 10 min, 20 mg/m^2, day 1 of cycle 1, KRd regimen): 0.326 ± 0.0735 µg·h/mL
NCCCS(=O)(=O)O  AUC(0-t) (human, plasma; oral, 100 mg modified-release tablet, single dose): 2.35 ± 0.747 µg·h/mL
C=CC(=O)Nc1cc(Nc2ncc(C(=O)OC(C)C)c(-c3cn(C)c4ccccc34)n2)c(OC)cc1N(C)CCN(C)C  AUC(0-t) (human, fasted; oral, 160 mg single dose, geometric mean): 1.01 µg·h/mL
Cl.NCCc1c[nH]c(=S)n1[C@H]1COc2c(F)cc(F)cc2C1  AUC(0-t) (human male, fasted, plasma; oral, 200 mg single dose, arithmetic mean): 1.86 µg·h/mL
O=C(NCCN1CCCC1)c1cc(-c2ccc(CN3CCOCC3)cc2)nc2ccc(F)cc12  AUC(0-t) (LC-MS/MS; human, whole blood; oral, 400 mg, single dose, geometric mean): 9.29 µg·h/mL
Cc1ccc(C(=O)NC2CC2)cc1-n1ncc(C(=O)c2cccc(C#N)c2)c1N  AUC(0-t) (human, plasma; oral, dose not given, geometric mean, with: itraconazole 200 mg oral daily days 1-14): 6.64 µg·h/mL
COc1cccc(-c2ccc(NC(=O)C3=C(C(=O)O)CCC3)c(F)c2)c1  AUC(0-t) (human, male, fasted, plasma; oral, 20 mg, single dose, geometric mean): 73 µg·h/mL
CC(C)NC[C@@H](C(=O)N1CCN(c2ncnc3c2[C@H](C)C[C@H]3O)CC1)c1ccc(Cl)cc1  AUC(0-t) (human, Healthy hepatic function, plasma; oral, 100 mg single dose, NCI classification, geometric mean): 0.295 µg·h/mL
CC(=O)c1c(C)c2cnc(Nc3ccc(N4CCNCC4)cn3)nc2n(C2CCCC2)c1=O  AUC(0-t) (human; oral, 50 mg/m^2 repeated doses, day 21): 1.52 µg·h/mL
